Results from different studies.
Values joined by “and” are separate records of one study, mostly repeats; a detail may differ.
Target: Dual specificity tyrosine-phosphorylation-regulated kinase 3 (DYRK3, Homo sapiens, UniProt O43781)

The inhibition of `CN1CC[C@@H](COc2cnc(C#N)cc2-c2ccn3nc(NC(=O)C4CC4)cc3c2)C1` is reported as 6% (enzyme activity, inhibitor; 1 µM).
The inhibition of `Cc1cccc(O[C@H]2CCC[C@@H](C(C)CNCc3ccncc3)C2)c1` (relative stereo) is reported as 3% (enzyme activity, inhibitor; 1 µM).
The inhibition of `C=CC(=O)Nc1cccc(-c2cnc3[nH]cc(C(=O)NC(C)(C)C)c3n2)c1` is reported as 1% and 3% (kinase activity; 0.1 µM).
The inhibition of `NC(=O)C[C@H]1CCc2sc3ncnc(O[C@H]4CC[C@H](N5CCOCC5)CC4)c3c21` is reported as 11% (enzyme activity, inhibitor; 10 µM).
With `Nc1ncc(-c2cc(-c3cnn(CC(F)(F)F)c3)ncc2F)nc1C(=O)NC1CNCC(F)C1` (centres unmarked) the remaining activity was 84% (enzyme activity; 1 µM; relative to: DMSO control).
`CCn1cc(C(=O)O)c(=O)c2c(N)c(F)c(NC3CCCCC3)cc21` gave an inhibition of -9.5% (kinase activity; 0.1 µM, added: ATP at Km).
`CN1CCN(Cc2ccc(-c3ccc(CO[C@H]4CCC[C@@H]4NC(=O)c4cc(-c5cnn(C)c5)cnc4N)cc3)cc2)CC1` gave an inhibition of 4% (enzyme activity, inhibitor; 0.1 µM).
For `Cc1cccc(-c2ccc3nc(NC(=O)C4CCCO4)nn3c2)c1` (centres unmarked), the remaining activity was 59% (enzyme activity, Dundee kinase panel; 10 µM).
`C=CC(=O)N1Cc2nc(-c3cc(-c4cc(Cl)cnc4Cl)c(F)cc3F)n(-c3ccncn3)c2C1` has an inhibition of 7.3% (cell-free assay, inhibitor; 1 µM).
`Cc1cccc(-c2ccc3nc(NC(=O)C4CCOCC4)nn3c2)c1` has a remaining activity of 33% (enzyme activity, Dundee kinase panel; 10 µM).
`O=C(Cc1ccc(OCc2ccccc2)cc1)NC1(C(=O)O)CCN(C(=O)c2ccc(-c3cccc(Cl)c3)cc2)CC1` — result for “activity vs control”: 97% (enzyme activity, inhibitor; 10 µM).
`CNC(=O)C[C@H](Cc1ccc(C#N)cc1)NC(=O)c1cc(-c2ccc(CN[C@H](C)c3ccc(C)cc3)o2)ccc1Cl`: “activity vs control” 107% (enzyme activity, inhibitor; 1 µM).
The inhibition of `NC(=O)[C@@H](O)C[C@H]1CCc2sc3ncnc(O[C@H]4CC[C@H](N5CCOCC5)CC4)c3c21` is reported as 7% (enzyme activity, inhibitor; 10 µM).
The remaining activity of `Nc1nc(Nc2ccccc2)sc1C(=O)c1ccccc1` is reported as 51% (enzyme activity, inhibitor; 10 µM).

Excerpt of the above:
`CN1CCN(Cc2ccc(-c3ccc(CO[C@H]4CCC[C@@H]4NC(=O)c4cc(-c5cnn(C)c5)cnc4N)cc3)cc2)CC1` gave an inhibition of 4% (enzyme activity, inhibitor; 0.1 µM).
